# Assay results from different studies.
# Lines come from different studies, so protocols differ.
# Matrix: Caco-2
SMILES,conditions,efflux ratio
CCCCC(CC)CNC(=N)NC(=N)NCCC (centres unmarked),"5 µM, 2 h",> 236
CCC/C(=C\C1=C(OC)C(=O)c2ccccc2C1=O)C(=O)NOC,,0.88
CC(C)c1cnn2c(NCc3ccccc3)cc(N[C@@H](CO)[C@H](O)CO)nc12,10 µM,12
Nc1ccc(-c2ccc3ncc4c(=O)[nH]c(=O)n(-c5cccc(C(F)(F)F)c5)c4c3n2)cn1,,22.7
COc1ccc(CC[C@@H](OC(=O)[C@@H]2CCCCN2C(=O)[C@H](c2cc(OC)c(OC)c(OC)c2)C2CCCCC2)c2cccc(OCC(=O)O)c2)cc1OC,,> 10
CCN(CC)CCN=S(=O)(c1ccccc1)N1CCCCC1 (centres unmarked),,1.5
CCCCC(CC)CNC(=N)NC(=N)NCCCCCCCCNC(=N)NC(=N)NCC(CC)CCCC (centres unmarked),"5 µM, 2 h",> 6.88
COC(=O)c1ccc2c(c1)NC(=O)/C2=C(\Nc1ccc2c(c1)CCN2C(=O)CN1CCOCC1)c1ccccc1,"2 µM, 2 h",~2.6
O=S(=O)(c1ccccc1)N1CCCCC1,,0.64
COC(=O)N[C@H]1CC[C@@H](Nc2cc(NCc3ccccc3F)n3ncc(C(C)C)c3n2)CC1,10 µM,~1
NC(=O)c1c(F)ccc(OCc2nc3cc(Cl)cnc3s2)c1F,,0.645

# Repeated from above:
SMILES,conditions,efflux ratio
COC(=O)c1ccc2c(c1)NC(=O)/C2=C(\Nc1ccc2c(c1)CCN2C(=O)CN1CCOCC1)c1ccccc1,"2 µM, 2 h",~2.6
